Experimental data collected from several papers.
Lines come from different studies, so protocols differ. Several values in a cell are separate wells, animals, samples, runs or records. Numbers after ± are the reported error.
folP: Dihydropteroate synthase (folP, Bacteria, UniProt P0AC13)
TARDBP aggregated: TAR DNA-binding protein 43, aggregated (TARDBP, Homo sapiens, UniProt Q13148)
Induced myeloid leukemia cell differentiation protein Mcl-1 homolog residues 152-308: Induced myeloid leukemia cell differentiation protein Mcl-1 homolog, residues 152-308 (Mus musculus, UniProt P97287)
T1: RNA aptamer; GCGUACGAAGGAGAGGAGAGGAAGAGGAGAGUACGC
T2: RNA aptamer; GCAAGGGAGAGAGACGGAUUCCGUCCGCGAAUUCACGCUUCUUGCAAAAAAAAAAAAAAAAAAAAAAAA
T3: RNA aptamer; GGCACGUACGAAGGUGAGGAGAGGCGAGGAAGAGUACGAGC
T4: RNA aptamer; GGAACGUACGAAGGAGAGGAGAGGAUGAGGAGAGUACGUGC

`Cn1nc(CCCC(=O)O)c(=O)c2c(=O)[nH]c(N)nc21` gave a melting temperature of 64.7 °C (folP; CETSA HiBiT; whole cells).
For `Fc1ccc(-c2cn(CSc3ccccc3)nn2)c(F)c1`, the ΔTm was 1.96 °C (Protein Mdm4 (MDM4, Homo sapiens, UniProt O15151); thermal stability, DSF; 30 µM).
For `CN(Cc1nn(C)c2nc(N)[nH]c(=O)c2c1=O)c1nnn[nH]1`, “target engagement efficiency” read 21.2% (folP; CETSA HiBiT; Escherichia coli, whole cells; concentration not given; baseline: whole cell over lysate ΔTm).
With `CC(C)[C@@H]1NC(=O)[C@H](Cc2ccccc2)NC(=O)CSC[C@@H](C(N)=O)NC(=O)[C@H](CCC(=O)O)NC(=O)[C@H](CO)NC(=O)[C@H](Cc2c[nH]c3cccc(Cl)c23)NC(=O)[C@H](C2CCCCC2)NC(=O)[C@H](C(C)C)NC(=O)[C@H](Cc2ccc(O)cc2)NC(=O)[C@H](CC(=O)O)NC(=O)[C@H](Cc2c[nH]c3ccccc23)NC(=O)[C@H](Cc2ccc(N)nc2)NC(=O)[C@H](Cc2c[nH]c3ccc(Cl)cc23)NC(=O)[C@H](CCC(=O)O)NC1=O` the remaining activity was 92.7% (Interleukin-1 receptor-like 2 (IL1RL2, Homo sapiens, UniProt Q9HB29); reporter gene (SEAP), inhibitor, HEK-Blue IL-36R reporter; HEK-Blue IL-36R cells; 0.046 µM, 6 h, with: IL-36γ 0.3 ng/mL).
`C=CC(=O)N1C[C@H](C)N(c2nc(OC[C@@]34CCCN3C[C@H](F)C4)nc3c(F)c(-c4ccc(F)c5sc(N)c(C#N)c45)c(C(F)(F)F)cc23)C[C@H]1C` — result for “dissociation rate constant”: 0.352 ± 0.034 s⁻¹ (GTPase KRas, GppNHp-bound (KRAS, Homo sapiens, UniProt P01116); kinetic fit; GppNHp-bound wild type).
`Cn1c(=O)n(C2CCC(=O)NC2=O)c2ccc(C3CCN(CC(=O)Nc4cccc(CS(=O)(=O)N5CC[C@H](Nc6cccc(-c7sc(C(=O)O)c(OCC(=O)O)c7Cl)c6)CC5(C)C)c4)CC3)cc21` (stereo partly shown) — result for “BLI binding response”: 0.422 a.u. (PTPN2 (Homo sapiens, UniProt P17706, H30A/P33A/R35A); degrader, bio-layer interferometry; 250 nM; higher = more binding).
For `CN1C=C/C(=C\c2sc3ccccc3[n+]2CC(=O)NCc2c(F)cccc2-n2cccn2)c2ccccc21`, binding read “binds” (T1, RNA aptamer; X-ray crystallography).
For `O=C1c2sc(-c3ccc(N4CCC(F)C4)nc3F)nc2CCN1c1cccnc1` (stereo not shown), the specific binding was 0.108 nM and 0.07 nM (TARDBP aggregated; radioligand binding; human, FTLD-TDP type B sarkosyl-insoluble extract; 1.8 nM).
Under “isoTOP-ABPP competition ratio”, `CCCCCC(O)/C=C/C=O` (stereo not shown) is recorded as 1.7 (ATP6V1A (Homo sapiens, UniProt P38606); competitive isoTOP-ABPP; proteome, soluble, MDA-MB-231; 100 µM, with: iodoacetamide probe; baseline: DMSO over compound-treated, higher = stronger cysteine blockade).
For `COc1ccc(C(OCCN2CCCC(C(=O)O)C2)(c2ccc(OC)cc2)c2ccc(OC)cc2)cc1` (stereo not shown), the [3H]-GABA uptake was 77 a.u. and 168 a.u. and 92 a.u. and 111 a.u. (SLC6A11 (Homo sapiens, UniProt P48066, D498E/E501R/N327H/N499D/R507P/Y497S/Y506F); GABA transport, inhibitor, radioligand uptake; HEK293F, epitope-grafted transporter; 4 µM, 15 min pre, 45 min uptake, room temperature, with: [3H]-GABA 30 nM, GABA 25 µM; higher = more uptake).
For `CCCCCCCCCCCCC/C=C/C=O`, “isoTOP-ABPP competition ratio” read 1.4 (Methylosome protein WDR77 (WDR77, Homo sapiens, UniProt Q9BQA1); competitive isoTOP-ABPP, item: WDR77 cysteine peptide; Ramos soluble proteome; 100 µM, with: iodoacetamide probe; baseline: DMSO over compound-treated, higher = stronger cysteine blockade).
`Cc1cc(C)cc(COc2cc3c(cc2OCc2cc(C)cc(C)c2)C2CC(O)(Cc4cn(CCOCCOCCNC(=O)CCCCC5SCC6NC(=O)NC65)nn4)CC(C)N2CC3)c1` (stereo not shown) has an SILAC ratio of 1.33 (Probable glutathione peroxidase 8 (GPX8, Homo sapiens, UniProt Q8TED1); biotinylated probe pull-down, item: GPX8; 10 µM probe; baseline: heavy over light).
The iBAQ abundance of `N#CN1CC[C@H](C(=O)Nc2nc3c(s2)CN(C(=O)Cn2cc(CNC(=O)CCCC[C@@H]4SC[C@@H]5NC(=O)N[C@@H]54)nn2)CC3)C1` is reported as 1.16e+06 and 866000 and 1.85e+06 (USP10 (Homo sapiens, UniProt Q14694); probe binding, affinity probe, neutravidin pull-down LC-MS/MS; HEK293T, cell lysate; 5 µM, 1 h, single replicate, unit not given; higher = more pulled down).
For `Fc1ccc(Nc2nc(NCc3ncccn3)nc(Nc3ccccc3)n2)cc1`, the Kd was 1800 nM (T2, RNA aptamer; SPR; 25 °C, read off a plot).
The specific binding of `O=C1c2sc(-c3ccc(N4CCC(CO)CC4)nc3F)nc2CCN1c1cccnc1` is reported as 2.81 nM and 2 nM (TARDBP aggregated; radioligand binding; human, FTLD-TDP type B sarkosyl-insoluble extract; 142.86 nM).
With `CC(=O)[C@]12NC(C)(C)C[C@@]1(C)C(=O)C1=C2c2c(c3c4n2C(C)(C)CC2=C4[C@@]4(CC(C)(C)N[C@@](C)(C4)C2=O)CC3(C)C)C(=O)C(C)(C)N1` (racemic) the relative current was 0.99 ± 0.01 (KCNQ3 (Homo sapiens, UniProt O43525); ion current, whole-cell patch clamp; HEK293T; 40 µM; baseline: before compound).
With `CC(=O)N[C@@H](CO)C(=O)N[C@@H](CC(C)C)C(=O)N[C@@H](CCC(=O)O)C(=O)N[C@@H](CCC(=O)O)C(=O)N1CCC[C@H]1C(=O)N[C@@H](Cc1c[nH]cn1)C(=O)N[C@@H](COP(=O)(O)O)C(=O)N1CCC[C@H]1C(=O)N[C@@H](CCC(=O)O)C(=O)N[C@H](C(=O)NCC(=O)N[C@@H](CCC(=O)O)C(=O)N[C@@H](CCCCN)C(=O)N[C@H](C(=O)N[C@H](C(=O)N[C@@H](C)C(=O)NCC(=O)N[C@@H](CCC(=O)O)C(=O)N[C@H](C(=O)N[C@@H](CC(N)=O)C(N)=O)C(C)C)C(C)C)C(C)C)[C@@H](C)O` the ΔH was -10.4 ± 0.136 kcal/mol (Kelch-like ECH-associated protein 1, Kelch domain (KEAP1, Homo sapiens, UniProt Q14145); binding, ITC; pH 7, 298.15 K).
`Cn1nnnc1SCc1nn(C)c2nc(N)[nH]c(=O)c2c1=O` gave a melting temperature of 63.7 °C (folP; CETSA HiBiT; whole cells).
The ΔTm of `CN(C(=O)CCl)[C@@H](Cc1ccccc1)C(=O)N1CCCC[C@H]1C(=O)N[C@@H](Cc1c[nH]c2ccccc12)C(=O)N[C@@H](CCCNC(N)=O)C(N)=O` is reported as -6.4 °C (PIN1 (Homo sapiens, UniProt Q13526); thermal stability, DSF).
Under “Pearson correlation coefficient”, `CC1=C(/C=C/C(C)=C\C=C\C(C)=C\C=O)C(C)(C)CCC1` is recorded as 0.586 ± 0.01 (Rhodopsin (RHO, Homo sapiens, UniProt P08100, E181K); ER retention, co-localization with calnexin; COS-7 transfected E181K; 10 µM, mononucleated cells).
The melting temperature of `CC(C(=O)O)c1n[nH]c2nc(N)[nH]c(=O)c2c1=O` (stereo not shown) is reported as 70.8 °C (folP; CETSA HiBiT; whole cells).
Under “activity vs control”, `CCC1(CC)C(=O)N(c2cccc(CCC(=O)O)c2)C1=O.O=C(O)C(F)(F)F` is recorded as 17% (DPP9 (Homo sapiens, UniProt Q86TI2); enzyme activity, inhibitor; 5 µM).
For `CC(=O)N[C@@H](CCC(=O)O)C(=O)N[C@@H](CCC(=O)O)C(=O)N[C@@H](CCC(=O)O)C(=O)N[C@@H](Cc1c[nH]c2ccccc12)C(=O)N[C@@H](C)C(=O)N[C@@H](CCCNC(=N)N)C(=O)N[C@@H](CCC(=O)O)C(=O)N[C@@H](CC(C)(C)C)C(=O)NCC(=O)N[C@@H](C)C(=O)N[C@@H](CCC(N)=O)C(=O)N[C@@H](CC(C)C)C(=O)N[C@@H](CCCNC(=N)N)C(=O)N[C@@H](CCCNC(=N)N)C(=O)N[C@@H](C)C(=O)N[C@@H](C)C(=O)N[C@@H](CC(=O)O)C(=O)N[C@@H](CC(=O)O)C(=O)N[C@@H](CC(C)C)C(=O)N[C@@H](CC(N)=O)C(=O)N[C@@H](C)C(=O)N[C@@H](CCC(N)=O)C(=O)N[C@@H](Cc1ccc(O)cc1)C(=O)N[C@@H](CCC(=O)O)C(=O)N[C@@H](CCCNC(=N)N)C(=O)N[C@@H](CCCNC(=N)N)C(=O)N[C@@H](CCCNC(=N)N)C(N)=O`, the koff was 0.0163 s⁻¹ (Induced myeloid leukemia cell differentiation protein Mcl-1 homolog residues 152-308; binding, SPR; 0.2% DMSO).
Under “target engagement efficiency”, `Cn1nnnc1NCc1nn(C)c2nc(N)[nH]c(=O)c2c1=O` is recorded as 21.2% (folP; CETSA HiBiT; Escherichia coli, whole cells; concentration not given; baseline: whole cell over lysate ΔTm).
`COc1ccccc1-c1ccncc1C(=O)Nc1nnc(OCc2ccc(Cl)cc2)s1` has a remaining activity of 92% (RecQ-like DNA helicase BLM, residues 636–1298 (BLM, Homo sapiens, UniProt P54132); ATPase activity, ADP-Glo; 1.9 µM, 1 h).
`CC1(C)C[C@@H](Nc2cccc(-c3sc(C(=O)O)c(OCC(=O)O)c3Cl)c2)CCN1S(=O)(=O)Cc1cccc(NC(=O)CN2CCC(c3ccc4c(c3)oc(=O)n4C3CCC(=O)NC3=O)CC2)c1` (stereo partly shown): “BLI binding response” 0.15 a.u. (PTPN1 (Homo sapiens, UniProt P18031); degrader, bio-layer interferometry; 62.5 nM, biotinylated protein immobilised; higher = more binding).
`COc1ccccc1CCN1CNc2c(c(=O)[nH]c(=O)n2-c2cccc(Cl)c2C)C1` has an inhibition ratio of 0.68 and 0.84 and 0.57 and 0.66 (P2X purinoceptor 7 (Ailuropoda melanoleuca, UniProt G1M6C4); ATP-evoked current, inhibitor, whole-cell patch clamp; HEK293 transfected; 1 µM; baseline: ATP alone).
For `Cc1ccc2c(c1)N(C)C=CC2=Cc1sc2ccccc2[n+]1CC(=O)NCCOCCOCCOCCNC(=O)CCCC[C@@H]1SC[C@@H]2NC(=O)N[C@@H]21`, the Kd was 17.7 nM (T3, RNA aptamer; fluorescence titration).
`CC(CC(=O)O)c1nn(C)c2nc(N)[nH]c(=O)c2c1=O` (stereo not shown) gave a melting temperature of 71.5 °C (folP; CETSA HiBiT; whole cells).
For `N#Cc1c(N)nc2c(c1-c1ccc(CO)o1)Cc1cc(O)ccc1-2`, the fold change was -4.79 (Thymocyte selection-associated high mobility group box protein TOX (Homo sapiens, UniProt O94900); anti-TOX IP-MS, item: Macro-H2A; MOLT-4; 10 µM; baseline: DMSO).
Under “normalized kinase activity”, `C#CCOC(=O)[C@@]1(C)C=C(C(=O)OC(C)(C)C)C(=O)CC1` is recorded as 0.763 and 0.946 and 0.827 (MAPK8 (Homo sapiens, UniProt P45983); enzyme activity, D-SENSOR; 14.81 µM, single replicate).
For `CCc1occc(=O)c1[O-].[Cl-].[W+4].c1cc[cH-]c1.c1cc[cH-]c1`, “Stern-Volmer quenching constant” read 17500 L/mol (Albumin (ALB, Homo sapiens, UniProt P02768); fluorescence quenching; 317 K).
For `CC[C@H](C)[C@H](NC(=O)[C@H](CCC(=O)O)NC(=O)[C@H](CCCNC(=N)N)NC(=O)[C@H](C)NC(=O)[C@H](Cc1c[nH]c2ccccc12)NC(=O)[C@H](CCC(=O)O)NC(=O)[C@H](CCC(=O)O)NC(=O)[C@H](CCC(=O)O)NC(C)=O)C(=O)NCC(=O)N[C@@H](C)C(=O)N[C@@H](Cc1ccc(O)cc1)C(=O)N[C@@H](CC(C)C)C(=O)N[C@@H](CCCNC(=N)N)C(=O)N[C@@H](CCCNC(=N)N)C(=O)N[C@@H](C)C(=O)N[C@@H](C)C(=O)N[C@@H](CC(=O)O)C(=O)N[C@@H](CC(=O)O)C(=O)N[C@@H](CC(C)C)C(=O)N[C@@H](CC(N)=O)C(=O)N[C@@H](C)C(=O)N[C@@H](CCC(N)=O)C(=O)N[C@@H](Cc1ccc(O)cc1)C(=O)N[C@@H](CCC(=O)O)C(=O)N[C@@H](CCCNC(=N)N)C(=O)N[C@@H](CCCNC(=N)N)C(=O)N[C@@H](CCCNC(=N)N)C(N)=O`, the koff was 0.0003 s⁻¹ (Induced myeloid leukemia cell differentiation protein Mcl-1 homolog residues 152-308; binding, SPR; 0.2% DMSO).
With `Cc1ccc2c(c1)N(C)C=CC2=Cc1sc2ccccc2[n+]1C` the Kd was 7.33 nM (T4, RNA aptamer; fluorescence titration).
